{"data": "Experimental data pooled from the literature", "note": "Each line is one published result; not all experiments were run side by side. Values joined by “and” are separate records of one study, mostly repeats; a detail may differ. ± gives the spread as reported."}
{"SMILES": "Cc1[nH]c2ccccc2c1CC(=O)N[C@@H](Cc1ccccc1)C(=O)N(C)c1ccccc1", "organism": "human immunodeficiency virus 1", "assay": "viral replication", "test system": "NL4-3 with subtype AG gag/pol", "endpoint": "EC50", "value": "840 ± 100 nM"}
{"SMILES": "C=C(NC(=O)c1csc(-c2nc3c(cc2O)-c2nc(cs2)C(=O)NC(C(C)O)C(=O)NC(=C(C)OC)c2nc(cs2)C(=O)NC2c4nc(cs4)C(=O)NC(COC(=O)c4c5c6c(cccc6n4O)COC(=O)C(OC4CC(C)(O)C(N(C)C)C(C)O4)C2OC5)c2nc-3cs2)n1)C(N)=O (centres unmarked)", "organism": "Enterococcus faecalis", "assay": "agar dilution", "test system": "vancomycin-intermediate, 20 isolates", "endpoint": "MIC50", "value": "0.0156 µg/mL"}
{"SMILES": "CC(=O)C(C)(c1c[nH]c2ccccc12)c1c[nH]c2ccccc12", "organism": "Clostridioides difficile", "assay": "microbial growth, absorbance", "endpoint": "IC50", "value": "> 50000 nM"}
{"SMILES": "N=C(N)NCCC[C@@H]1NC(=O)[C@H](CCCNC(=N)N)NC(=O)[C@@H](CCCNC(=N)N)NC(=O)[C@@H](CCCNC(=N)N)NC(=O)[C@@H](C(c2ccccc2)c2ccccc2)NC(=O)[C@H](Cc2c[nH]c3ccccc23)NC(=O)[C@@H](C(c2ccccc2)c2ccccc2)NC1=O", "organism": "Candida albicans", "test system": "ATCC 60193", "setting": "MIC, 12 h", "endpoint": "reduction of viable cells", "value": "> 65%"}
{"SMILES": "Cc1cc(N2CC[C@@](C#N)(C3(C)CC3)C2=O)cc(C(=O)NCc2cc(F)cc(-c3cnn(C)c3)c2)n1", "organism": "Plasmodium vivax", "assay": "ex vivo drug susceptibility", "test system": "clinical field isolates", "endpoint": "IC50", "value": "7 to 25 nM"}
{"SMILES": "Cc1ccc(C(NC(=O)c2cc(-c3ccccc3)n(-c3ccccc3)n2)c2ccncc2)cc1 (centres unmarked)", "organism": "Dengue virus", "assay": "viral replication, inhibitor, imaging", "test system": "Vero, DENV2", "setting": "12.5 µM", "endpoint": "inhibition", "value": "> 60%"}
{"SMILES": "Cc1cccc2c1N(C(=O)n1ccnn1)CC2", "organism": "Arabidopsis thaliana", "test system": "wild type, seeds", "setting": "30 µM, high ambient temperature", "endpoint": "germination rate", "value": "13.8% and 7% and 62.5% and 10% and 12.5% and 8.6%"}
{"SMILES": "NCCOCCO.O=C(O)C(Cl)Cl", "organism": "Xanthium sibiricum", "setting": "15 mg/mL, 21 days, pre-emergence, greenhouse", "endpoint": "herbicidal inhibition", "value": "0%"}
{"SMILES": "C=C[C@]1(C)C[C@@H](OC(=O)CSc2ccc(NC(=O)c3ccco3)cc2)[C@]2(C)[C@H](C)CC[C@]3(CCC(=O)[C@H]32)[C@@H](C)[C@@H]1O", "organism": "Mycoplasma gallisepticum", "test system": "infected chickens, lung", "setting": "intramuscular, 10 mg/kg daily x3, 72 h", "endpoint": "lung mycoplasma count", "value": "5.44 log10 CFU/mL and 4.97 log10 CFU/mL and 4.57 log10 CFU/mL and 4.98 log10 CFU/mL and 4.96 log10 CFU/mL and 4.48 log10 CFU/mL and 4.35 log10 CFU/mL and 5.07 log10 CFU/mL"}
{"SMILES": "COC(=O)[C@H](C)NC(=O)c1ccccc1NC(=O)[C@H](Cc1ccc(OC(C)(C)C)cc1)N(C)C(=O)[C@@H](NC(=O)OCc1ccccc1)C(C)C", "organism": "Candida albicans", "assay": "potentiator, broth microdilution", "test system": "ATCC 90029", "setting": "4.0 µg/mL, with: amphotericin B", "how to read": "relative to: amphotericin B alone", "endpoint": "fold potentiation", "value": 32}
{"SMILES": "c1ccc(CN2CCOCCOCCN(CCCCCCCCCCCCN3CCOCCOCCN(CCCCCCCCCCCCN4CCOCCOCCN(Cc5ccccc5)CCOCCOCC4)CCOCCOCC3)CCOCCOCC2)cc1", "organism": "Klebsiella pneumoniae", "test system": "ATCC BAA-2146", "setting": "half MIC, with: tetracycline", "endpoint": "tetracycline MIC", "value": "125 ± 25 µM"}
{"SMILES": "COC1C=COC2(C)Oc3c(C)c(O)c4c(c3C2=O)C2=NC3(CCN(CC(C)C)CC3)NC2=C(NC(=O)C(C)=CC=CC(C)C(O)C(C)C(O)C(C)C(OC(=O)Nc2cnccn2)C1C)C4=O (centres unmarked)", "organism": "Mycobacteroides abscessus", "assay": "bacterial growth", "test system": "subsp. massiliense 095 clinical isolate", "setting": "mixed morphotype", "endpoint": "IC50", "value": "163 nM"}
{"SMILES": "CC(C)(C)NCC(SS(=O)(=O)O)c1ccccc1 (centres unmarked)", "organism": "Schistosoma mansoni", "test system": "mice", "setting": "600 mg/kg single dose, 1056 h, dosed day 15, perfused 44", "how to read": "relative to: vehicle", "endpoint": "female worm burden reduction", "value": "89%"}
{"SMILES": "CN(Cc1ccc(C2(C(F)(F)F)CCC2)cc1)Cc1cccc2ccccc12", "organism": "Trichophyton mentagrophytes", "assay": "microbial growth, disc diffusion", "test system": "ATCC18748", "setting": "0.064 µg/mL, 72 h", "endpoint": "inhibition zone", "value": "27.8 mm"}
{"note": "For quick reference, copied from above:"}
{"SMILES": "C=C(NC(=O)c1csc(-c2nc3c(cc2O)-c2nc(cs2)C(=O)NC(C(C)O)C(=O)NC(=C(C)OC)c2nc(cs2)C(=O)NC2c4nc(cs4)C(=O)NC(COC(=O)c4c5c6c(cccc6n4O)COC(=O)C(OC4CC(C)(O)C(N(C)C)C(C)O4)C2OC5)c2nc-3cs2)n1)C(N)=O (centres unmarked)", "organism": "Enterococcus faecalis", "assay": "agar dilution", "test system": "vancomycin-intermediate, 20 isolates", "endpoint": "MIC50", "value": "0.0156 µg/mL"}
{"SMILES": "COC(=O)[C@H](C)NC(=O)c1ccccc1NC(=O)[C@H](Cc1ccc(OC(C)(C)C)cc1)N(C)C(=O)[C@@H](NC(=O)OCc1ccccc1)C(C)C", "organism": "Candida albicans", "assay": "potentiator, broth microdilution", "test system": "ATCC 90029", "setting": "4.0 µg/mL, with: amphotericin B", "how to read": "relative to: amphotericin B alone", "endpoint": "fold potentiation", "value": 32}
